Measurements gathered from unrelated publications.
Each line is one published result; not all experiments were run side by side. “And” joins repeats or separate records; there may be more than shown. ± marks the error that the study gave.
KCNT1: Potassium channel subfamily T member 1 (KCNT1, Homo sapiens, UniProt Q5JUK3)
CFTR del508-508: Cystic fibrosis transmembrane conductance regulator (CFTR, Homo sapiens, UniProt P13569, del508-508)
YAP1 WW2 domain: Transcriptional coactivator YAP1, WW2 domain (YAP1, Homo sapiens, UniProt P46937)
Kelch domain-containing protein 2: Kelch domain-containing protein 2 (UniProt Q9Y2U9)
YAP1 WW1 domain: Transcriptional coactivator YAP1, WW1 domain (YAP1, Homo sapiens, UniProt P46937)
Calm1 D21A/D57A: Calmodulin-1 (Calm1, Rattus norvegicus, UniProt P0DP29, D21A/D57A)

N[C@H]1C=C(C(=O)O)CC1(F)F  quinonoid intermediate accumulation (OAT (Homo sapiens, UniProt P04181); stopped-flow spectrophotometry; concentration not given): ~20%
O=c1c(-c2ccc(O)cc2)coc2cc(O)cc(O)c12  time constant of current suppression (CNGA1 (Bos taurus, UniProt Q00194); cGMP-activated current, inside-out patch clamp; Xenopus oocytes; together with: saturating cGMP): 7.3 s
CC(C)[C@H](NC(=O)OCc1ccccc1)C(=O)N[C@H](C=O)Cc1ccccc1  bound fibrinogen fluorescence (integrin alphaM beta2 (human); ligand binding, inhibitor, flow cytometry; human neutrophils; concentration not given, 1 h, 37 °C, integrin clustering inhibitor, together with: Alexa 488-labelled fibrinogen; relative to: no inhibitor, lower means less binding): 415 ± 55 MFI
CCOc1ccccc1S(=O)(=O)N1CC(c2nc(-c3ccc(C)cc3)no2)C1  activity class (KCNT1; Tl+ flux, inhibitor; HEK293 expressing KCNT1; 30 µM): inactive
O=S(=O)(Sc1cccc(Br)c1)c1cccc(Br)c1  inhibition (tubulin; colchicine binding; 5 µM, 10 min, 37 °C, together with: [3H]colchicine 5.0 µM): 20 ± 1%
COc1ccc(Cl)cc1Nc1nc2c(s1)CCCc1nc(NC(=O)C(C)(C)C)sc1-2  Vmax (CFTR del508-508; iodide influx, corrector, YFP halide quenching; FRT cells expressing YFP-H148Q/I152L; 16 to 20 h, 37 °C, genistein 50 µM, together with: forskolin 20 µM): 336 µM/s
O=[N+]([O-])c1ccc(OS(=O)(=O)O)cc1  Ki (SULT1A1 (Homo sapiens, UniProt P50225); sulfation, substrate inhibition; pH 6.2, 37 °C, competitive versus PAP, together with: PAP 5 to 20 µM): 25 ± 4 mM
IINFEKE  Hill coefficient (ERAP1 (Homo sapiens, UniProt Q9NZ08, I681R); substrate; peptide; pH 8.0, 27 °C, mutant I681R, together with: L-AMC, peptide activator 100 µM): 1.7
CC(C)C[C@H](NC(=O)[C@H](C)NC(=O)[C@@H](N)[C@@H](C)O)C(=O)N1CCC[C@H]1C(=O)N1CCC[C@H]1C(=O)N1CCC[C@H]1C(=O)N1CCC[C@H]1C(=O)N[C@@H](Cc1ccc(O)cc1)C(=O)N[C@@H](CCCNC(=N)N)C(=O)N[C@@H](Cc1c[nH]cn1)C(=O)N[C@@H](CCCNC(=N)N)C(=O)N[C@@H](CC(N)=O)C(=O)O  ΔH (YAP1 WW2 domain; binding, ITC; pH 7.0, 25 °C, WW2 domain): -10.3 ± 0.28 kcal/mol
CN(C)c1cccc(Nc2nc3c(s2)CCCc2nc(NC(=O)C(C)(C)C)sc2-3)c1  Vmax (CFTR del508-508; iodide influx, corrector, YFP halide quenching; FRT cells expressing YFP-H148Q/I152L; 16 to 20 h, 37 °C, genistein 50 µM, together with: forskolin 20 µM): 336 µM/s
Fc1cccc(SSc2cccc(F)c2)c1  inhibition (tubulin; colchicine binding, [3H]colchicine binding; 50 µM, 10 min, 37 °C, together with: [3H]colchicine 5.0 µM): 12 ± 2%
Cc1ccc2c(c1)sc(-c1ccc(N(C)C)cc1)[n+]2C  fluorescence increase (Transthyretin, fibrils (TTR, Homo sapiens, UniProt P02766); amyloid fibrils; 1 µM; relative to: pH 3.0 over pH 7.5): 4.3 fold
CC(C)C[C@H](NC(=O)[C@@H](NC(=O)[C@@H](N)[C@@H](C)O)C(C)C)C(=O)N1CCC[C@H]1C(=O)N1CCC[C@H]1C(=O)N1CCC[C@H]1C(=O)N1CCC[C@H]1C(=O)N[C@@H](Cc1ccc(O)cc1)C(=O)N[C@@H](CCCNC(=N)N)C(=O)N[C@@H](Cc1c[nH]cn1)C(=O)N[C@@H](CCCNC(=N)N)C(=O)N[C@@H](CC(N)=O)C(=O)O  ΔG (YAP1 WW2 domain; binding, ITC; pH 7.0, 25 °C, WW2 domain): -5.81 ± 0.04 kcal/mol
Nc1ccc(-c2nc([C@H]3CCc4cc(-c5cc(Cl)ccc5-n5cnnn5)cc(=O)n43)c(F)[nH]2)c(F)n1  FXI activity inhibition (F11 (Homo sapiens, UniProt P03951); human, blood; oral, 80 mg once daily, fed, day 1, 24 h): 33 ± 3.5%
CCOc1ccccc1S(=O)(=O)N1CC(c2nc(-c3cccc(F)c3)no2)C1  activity class (KCNT1; Tl+ flux, inhibitor; HEK293 expressing KCNT1; 30 µM): inactive
Cl.N=C(N)N  association constant (phenol; spectral titration): 970000 M⁻¹
Cc1cc(C)c2cc(C#N)c(N3CCN(C(=O)c4ccncc4)CC3)nc2c1  EC50 (CFTR del508-508; ΔF508-CFTR correction, corrector; FRT; up to 25 µM, 37 °C, together with: forskolin 20 µM + genistein 50 µM): inactive
LVYGG  fraction of protein bound (Kelch domain-containing protein 2; native mass spectrometry; peptide, 200 mM ammonium acetate; 20 µM Kelch domain-containing protein 2, pH 7; relative to: total Kelch domain-containing protein 2 signal): 2.3%
CCOc1ccccc1S(=O)(=O)N1CC(c2nc(-c3nccs3)no2)C1  activity class (KCNT1; Tl+ flux, inhibitor; HEK293 expressing KCNT1; 30 µM): inactive
CASDEGEVIVFGG  fraction of protein bound (Kelch domain-containing protein 2; native mass spectrometry; peptide, 200 mM ammonium acetate; 20 µM Kelch domain-containing protein 2, pH 7; relative to: total Kelch domain-containing protein 2 signal): 2%
COc1ccccc1C(=O)NCCCNc1nc2cc(C)cc(C)c2cc1C#N  EC50 (CFTR del508-508; ΔF508-CFTR correction, corrector; FRT; up to 25 µM, 37 °C, together with: forskolin 20 µM + genistein 50 µM): inactive
Cc1cc(=O)oc2cc(NC(=O)[C@@H](N)CC(C)C)ccc12  Vmax (ERAP1 (Homo sapiens, UniProt Q9NZ08, F803R); hydrolysis of compound, substrate; varied from 0 µM, 5 min, pH 8.0, 27 °C, mutant F803R, no peptide activator): 200 ± 2 nmol/min/µg
CC(C)C[C@H](NC(=O)[C@@H](NC(=O)[C@@H](N)[C@@H](C)O)C(C)C)C(=O)N1CCC[C@H]1C(=O)N1CCC[C@H]1C(=O)N1CCC[C@H]1C(=O)N1CCC[C@H]1C(=O)N[C@@H](Cc1ccc(O)cc1)C(=O)N[C@@H](CCCNC(=N)N)C(=O)N[C@@H](C)C(=O)N[C@@H](CCCNC(=N)N)C(=O)N[C@@H](CC(N)=O)C(=O)O  TΔS (YAP1 WW1 domain; binding, ITC; pH 7.0, 25 °C, WW1 domain): -7.95 ± 0.52 kcal/mol
IINFEKL  Hill coefficient (ERAP1 (Homo sapiens, UniProt Q9NZ08, V737R); substrate; peptide; pH 8.0, 27 °C, mutant V737R, together with: L-AMC, peptide activator 100 µM): 1.4
NC(=NCc1ccccc1)NC(=O)c1nc(Cl)c(N)nc1N  current change (Degenerin mec-4 (mec-4, Caenorhabditis elegans, UniProt P24612, A713T); ion current, two-electrode voltage clamp; Xenopus oocytes coexpressing MEC-2; 30 µM, -85 mV; relative to: uninjected oocytes, positive inhibition, negative potentiation): 7.81 µA
N[C@@H](Cc1cnc[nH]1)C(=O)O  ΔTm (HARS1 (Homo sapiens, UniProt P12081, S356N); thermal stability, DSF): 8.3 °C
CC[C@H](C)[C@H](NC(=O)[C@H](CC(C)C)NC(=O)[C@H](Cc1ccccc1)NC(=O)[C@@H](NC(=O)[C@H](C)N)[C@@H](C)O)C(=O)N[C@@H](CCC(N)=O)C(=O)N[C@@H](CCC(=O)O)C(=O)N[C@@H](Cc1ccc(O)cc1)C(=O)N[C@@H](Cc1ccccc1)C(=O)N[C@@H](CCCNC(=N)N)C(=O)N[C@@H](CCCCN)C(=O)N[C@@H](Cc1ccccc1)C(=O)N[C@@H](CCCCN)C(=O)N[C@@H](CCCCN)C(=O)N[C@@H](CCCNC(=N)N)C(=O)N[C@@H](CCCCN)C(=O)N[C@@H](CCC(=O)O)C(=O)N[C@@H](CCC(N)=O)C(=O)NCC(=O)N[C@@H](CC(C)C)C(=O)N[C@H](C(=O)NCC(=O)N[C@@H](CCCCN)C(=O)N1CCC[C@H]1C(=O)N[C@@H](CO)C(=O)N[C@@H](CCC(N)=O)C(=O)O)C(C)C  apparent calcium binding free energy, ΔG2 (rat calmodulin 1-80, sites I and II; fluorescence titration; 6 to 8 µM, pH 7.4, 22 °C): -13.6 ± 0.15 kcal/mol
GSRPQRLLWQTAVRHITEQRFIHGH  koff2 (Calm1 D21A/D57A; Ca2+ dissociation, stopped-flow quin-2 fluorescence; peptide; 2 µM, pH 7.4, 22 °C, together with: Ca2+-calmodulin complex): 0.29 ± 0.06 s⁻¹
Cc1ccc(-c2csc3ncn(Cc4ccccc4)c(=O)c23)o1  activity (MAD2L2, with REV3L peptide (Homo sapiens, UniProt Q9UI95, R124A); concentration not given): inactive
IKPAKRMKFKTVCYLLVQLMHCRKMFKA  koff2 (Calm1 D21A/D57A; Ca2+ dissociation, stopped-flow quin-2 fluorescence; peptide; 2 µM, pH 7.4, 22 °C, together with: Ca2+-calmodulin complex): 0.84 s⁻¹ and 0.8 s⁻¹
CC1(Cc2ccccc2)NC(=O)C(C(=O)Nc2ccc(C3CCCCC3)cc2)=C1O (stereo not drawn)  fluorescent probe displacement (Isoprenyl transferase (Streptococcus pneumoniae serotype 4, UniProt Q97SR4); binding, competitor; together with: 2 µM fluorescent FPP probe): no effect
CC(C)[C@H](NC(=O)[C@@H](N)[C@@H](C)O)C(=O)N[C@@H](C)C(=O)N1CCC[C@H]1C(=O)N1CCC[C@H]1C(=O)N1CCC[C@H]1C(=O)N1CCC[C@H]1C(=O)N[C@@H](Cc1ccc(O)cc1)C(=O)N[C@@H](CCCNC(=N)N)C(=O)N[C@@H](Cc1c[nH]cn1)C(=O)N[C@@H](CCCNC(=N)N)C(=O)N[C@@H](CC(N)=O)C(=O)O  ΔG (YAP1 WW2 domain; binding, ITC; pH 7.0, 25 °C, WW2 domain): -5.58 ± 0.12 kcal/mol
CN(C)C(=O)C(CCN1CCC(O)(c2ccc(Cl)cc2)CC1)(c1ccccc1)c1ccccc1  time constant (Calcium-activated potassium channel subunit alpha-1, with LRRC26 γ1 subunit (KCNMA1, Homo sapiens, UniProt Q12791); ion current, whole-cell patch clamp; HEK-293T overexpressing; 10 µM, second application): 32 s
N[C@@H](Cc1c[nH]cn1)C(=O)O  relative efflux (SLC7A5 (Homo sapiens, UniProt Q01650); substrate; HEK293 expressing human LAT1; 200 µM, 3 min, together with: [3H]-gabapentin preloaded; relative to: L-phenylalanine): 140%
CC(C)C[C@H](NC(=O)[C@@H](NC(=O)[C@@H](N)[C@@H](C)O)C(C)C)C(=O)N[C@@H](C)C(=O)N1CCC[C@H]1C(=O)N1CCC[C@H]1C(=O)N1CCC[C@H]1C(=O)N[C@@H](Cc1ccc(O)cc1)C(=O)N[C@@H](CCCNC(=N)N)C(=O)N[C@@H](Cc1c[nH]cn1)C(=O)N[C@@H](CCCNC(=N)N)C(=O)N[C@@H](CC(N)=O)C(=O)O  ΔG (YAP1 WW1 domain; binding, ITC; pH 7.0, 25 °C, WW1 domain): -5.68 ± 0.12 kcal/mol
Nc1ncnc2c1ncn2[C@@H]1O[C@H](COP(=O)(O)OP(=O)(O)OP(=O)(O)O)[C@@H](O)[C@H]1O  koff (ATP1A1 (Canis lupus familiaris, UniProt P50997); dissociation from E1 state; dog; 4 °C, together with: 200 mM Na+, NMG+ replacement, total 500 mM): 0.85 ± 0.24 s⁻¹
CC(C)C[C@H](NC(=O)[C@@H](NC(=O)[C@@H](N)[C@@H](C)O)C(C)C)C(=O)N1CCC[C@H]1C(=O)N1CCC[C@H]1C(=O)N1CCC[C@H]1C(=O)N[C@@H](C)C(=O)N[C@@H](Cc1ccc(O)cc1)C(=O)N[C@@H](CCCNC(=N)N)C(=O)N[C@@H](Cc1c[nH]cn1)C(=O)N[C@@H](CCCNC(=N)N)C(=O)N[C@@H](CC(N)=O)C(=O)O  TΔS (YAP1 WW1 domain; binding, ITC; pH 7.0, 25 °C, WW1 domain): -6.91 ± 0.57 kcal/mol
CCOc1ccccc1S(=O)(=O)N1CC(c2nnc(-c3ccc(F)cc3)[nH]2)C1  efficacy (KCNT1; Tl+ flux, activator; HEK293 expressing KCNT1; 30 µM; relative to: loxapine maximum response): 37%
O=C(O)c1cccc(O)c1O  remaining activity (Enterobactin synthase component B, with EntC (entB, Escherichia coli, UniProt P0ADI4); isochorismatase activity, EntC-EntB-LDH coupled; 350 µM, 0.05 µM EntC, 1.25 µM EntB, together with: 6.25 µM MenD competitor, 26 µM chorismate; relative to: without MenD): ~5%

Repeated from above:
Cc1ccc2c(c1)sc(-c1ccc(N(C)C)cc1)[n+]2C  fluorescence increase (Transthyretin, fibrils (TTR, Homo sapiens, UniProt P02766); amyloid fibrils; 1 µM; relative to: pH 3.0 over pH 7.5): 4.3 fold
CC(C)C[C@H](NC(=O)[C@@H](NC(=O)[C@@H](N)[C@@H](C)O)C(C)C)C(=O)N1CCC[C@H]1C(=O)N1CCC[C@H]1C(=O)N1CCC[C@H]1C(=O)N1CCC[C@H]1C(=O)N[C@@H](Cc1ccc(O)cc1)C(=O)N[C@@H](CCCNC(=N)N)C(=O)N[C@@H](Cc1c[nH]cn1)C(=O)N[C@@H](CCCNC(=N)N)C(=O)N[C@@H](CC(N)=O)C(=O)O  ΔG (YAP1 WW2 domain; binding, ITC; pH 7.0, 25 °C, WW2 domain): -5.81 ± 0.04 kcal/mol
Nc1ccc(-c2nc([C@H]3CCc4cc(-c5cc(Cl)ccc5-n5cnnn5)cc(=O)n43)c(F)[nH]2)c(F)n1  FXI activity inhibition (F11 (Homo sapiens, UniProt P03951); human, blood; oral, 80 mg once daily, fed, day 1, 24 h): 33 ± 3.5%
CCOc1ccccc1S(=O)(=O)N1CC(c2nc(-c3cccc(F)c3)no2)C1  activity class (KCNT1; Tl+ flux, inhibitor; HEK293 expressing KCNT1; 30 µM): inactive
